Published values from different studies.
Values joined by “and” are separate records of one study, mostly repeats; a detail may differ. Numbers after ± are the reported error.

| SMILES | test | system | conditions | how to read | quantity | value |
| --- | --- | --- | --- | --- | --- | --- |
| COc1cnc2cccc(N3CCc4c(cc(Cn5ccnc5)cc4-c4cn(C)nc4C(F)(F)F)C3=O)c2c1 | – | CD-1 mice | intraperitoneal, 150 mg/kg once daily, day 4 | – | body weight | 29.9 ± 1.2 g |
| O=C(c1cc(Cc2n[nH]c(=O)c3ccccc23)ccc1F)N1CC(CNC2CC2)C1 | – | Wistar Han rat, female, blood | oral, 15 mg/kg daily, 4 weeks | – | haemoglobin | 14.3 ± 0.8 g/dL |
| CCCCCCCCCCCCCCCC(=O)N[C@@H](CCC(=O)NCCOCCOCCC(=O)NCCOCCOCCC(=O)NCCCC[C@H](NC(=O)[C@H](CC(=O)O)NC(=O)[C@H](CC(C)C)NC(=O)[C@H](Cc1ccc(O)cc1)NC(=O)[C@H](CCCCN)NC(=O)[C@H](CO)NC(=O)[C@H](Cc1ccc(O)cc1)NC(=O)[C@H](CC(=O)O)NC(=O)[C@H](CO)NC(=O)[C@@H](NC(=O)[C@H](Cc1ccccc1)NC(=O)[C@@H](NC(=O)CNC(=O)[C@H](CCC(N)=O)NC(=O)[C@@H](CO)NC(=O)[C@@H](N)Cc1c[nH]cn1)[C@@H](C)O)[C@@H](C)O)C(=O)N[C@@H](CCCNC(=N)N)C(=O)N[C@@H](CCCNC(=N)N)C(=O)N[C@@H](C)C(=O)N[C@@H](CCC(N)=O)C(=O)N[C@@H](CC(=O)O)C(=O)N[C@@H](Cc1ccccc1)C(=O)N[C@H](C(=O)N[C@@H](CCC(N)=O)C(=O)N[C@@H](Cc1c[nH]c2ccccc12)C(=O)N[C@@H](CC(C)C)C(=O)N[C@@H](CC(C)C)C(=O)N[C@@H](CC(N)=O)C(=O)N[C@H](C(=O)NCC(=O)NCC(=O)N1CCC[C@H]1C(=O)N[C@@H](CO)C(=O)N[C@@H](CO)C(=O)NCC(=O)N[C@@H](C)C(=O)N1CCC[C@H]1C(=O)N1CCC[C@H]1C(=O)N1CCC[C@H]1C(=O)N[C@@H](CO)C(N)=O)[C@@H](C)O)C(C)C)C(=O)O | measured: CK | rhesus monkey, female | subcutaneous, 20 µg/kg once daily, 28 days | – | serum enzyme activity | 123 ± 11 U/L |
| CCCCCCCCCCCCCC(=O)N[C@H](CCN)C(=O)N[C@@H]1C(=O)N[C@@H](CCN)C(=O)N[C@@H](CC(C)C)C(=O)N[C@@H](CCN)C(=O)N[C@H](Cc2ccccc2)C(=O)N[C@@H](CC(C)C)C(=O)N[C@@H](CCN)C(=O)N[C@H](CCN)C(=O)N[C@@H](C(C)C)C(=O)N[C@@H](CC(=O)O)C(=O)O[C@@H]1C | – | rat, plasma | intravenous, 5 mg/kg | – | clearance | 1.48 mL/min/kg |
| CCCCCCCCCCCCCC(=O)N[C@@H](CCCNC(=N)N)C(=O)N[C@@H](Cc1c[nH]c2ccccc12)C(=O)N[C@@H](CCCCN)C(=O)N[C@H](C(=O)N[C@@H](Cc1ccccc1)C(=O)N[C@@H](CCCCN)C(=O)N[C@@H](CCCCN)C(=O)N[C@H](C(=O)N[C@@H](CCC(=O)O)C(=O)N[C@@H](CCCCN)C(=O)N[C@H](C(=O)NCC(=O)N[C@@H](CCC(N)=O)C(=O)N[C@@H](CC(N)=O)C(=O)N[C@H](C(=O)N[C@@H](CCCNC(=N)N)C(=O)N[C@@H](CC(=O)O)C(=O)NCC(=O)N[C@H](C(=O)N[C@H](C(=O)N[C@@H](CCCCN)C(=O)N[C@@H](C)C(=O)NCC(=O)N1CCC[C@H]1C(=O)N[C@@H](C)C(=O)N[C@H](C(=O)N[C@@H](C)C(=O)N[C@H](C(=O)N[C@H](C(=O)NCC(=O)N[C@@H](CCC(N)=O)C(=O)N[C@@H](C)C(=O)N[C@@H](C)C(=O)N[C@H](C(=O)N[C@H](C(N)=O)[C@@H](C)CC)[C@@H](C)O)C(C)C)C(C)C)C(C)C)C(C)C)[C@@H](C)CC)[C@@H](C)CC)C(C)C)[C@@H](C)CC)[C@@H](C)CC | – | mouse erythrocytes | 32 µM, 1 h, 37 °C | – | hemolysis | ~20% |
| CSCC[C@H](N)C(=O)N[C@@H](C)C(=O)N[C@@H](Cc1c[nH]c2ccccc12)C(=O)N[C@@H](Cc1c[nH]cn1)C(=O)N[C@@H](CC(=O)O)C(=O)N[C@@H](CC(=O)O)C(=O)N[C@@H](CCC(=O)O)C(=O)N[C@@H](CCC(=O)O)C(=O)N[C@@H](Cc1ccccc1)C(=O)N[C@@H](C)C(=O)N[C@@H](CCCNC(=N)N)C(=O)N[C@@H](CCCNC(=N)N)C(=O)N[C@@H](CCCNC(=N)N)C(=O)N[C@@H](CCCNC(=N)N)C(=O)NCCCCCC(=O)NCCCCC(NC(=O)CCCCCNC(=O)[C@H](CCCNC(=N)N)NC(=O)[C@H](CCCNC(=N)N)NC(=O)[C@H](CCCNC(=N)N)NC(=O)[C@H](CCCNC(=N)N)NC(=O)[C@H](C)NC(=O)[C@H](Cc1ccccc1)NC(=O)[C@H](CCC(=O)O)NC(=O)[C@H](CCC(=O)O)NC(=O)[C@H](CC(=O)O)NC(=O)[C@H](CC(=O)O)NC(=O)[C@H](Cc1c[nH]cn1)NC(=O)[C@H](Cc1c[nH]c2ccccc12)NC(=O)[C@H](C)NC(=O)[C@@H](N)CCSC)C(=O)NCCCCC(NC(=O)C(CCCCNC(=O)CCCCCNC(=O)[C@H](CCCNC(=N)N)NC(=O)[C@H](CCCNC(=N)N)NC(=O)[C@H](CCCNC(=N)N)NC(=O)[C@H](CCCNC(=N)N)NC(=O)[C@H](C)NC(=O)[C@H](Cc1ccccc1)NC(=O)[C@H](CCC(=O)O)NC(=O)[C@H](CCC(=O)O)NC(=O)[C@H](CC(=O)O)NC(=O)[C@H](CC(=O)O)NC(=O)[C@H](Cc1c[nH]cn1)NC(=O)[C@H](Cc1c[nH]c2ccccc12)NC(=O)[C@H](C)NC(=O)[C@@H](N)CCSC)NC(=O)CCCCCNC(=O)[C@H](CCCNC(=N)N)NC(=O)[C@H](CCCNC(=N)N)NC(=O)[C@H](CCCNC(=N)N)NC(=O)[C@H](CCCNC(=N)N)NC(=O)[C@H](C)NC(=O)[C@H](Cc1ccccc1)NC(=O)[C@H](CCC(=O)O)NC(=O)[C@H](CCC(=O)O)NC(=O)[C@H](CC(=O)O)NC(=O)[C@H](CC(=O)O)NC(=O)[C@H](Cc1c[nH]cn1)NC(=O)[C@H](Cc1c[nH]c2ccccc12)NC(=O)[C@H](C)NC(=O)[C@@H](N)CCSC)C(N)=O (stereo partly drawn) | – | mouse C57BL/6 female, small intestine | 6 h, radioiodinated peptide | relative to: total radioactivity | tissue distribution | 7.75% and 14.4% and 17% |
| CSCC[C@@H]1NC(=O)[C@H](C(C)C)NC(=O)[C@H](CCCNC(=N)N)NC(=O)CNC(=O)[C@@H]2CCCN2C(=O)[C@@H](NC(=O)CNC(=O)[C@H](CO)NC(=O)CNC(=O)[C@H](CO)NC(=S)Nc2ccc(C[C@H]3CN(CC(=O)O)CCN(CC(=O)O)CCN3CC(=O)O)cc2)CSSC[C@@H](C(N)=O)NC(=O)[C@@H]2CCCN2C(=O)CNC(=O)[C@H](CCC(=O)O)NC(=O)[C@H](CC(=O)O)NC(=O)[C@H](CC(=O)O)NC(=O)CNC(=O)[C@H](CC(C)C)NC(=O)[C@H](Cc2c[nH]cn2)NC(=O)[C@H](CC(C)C)NC(=O)CNC(=O)[C@H](Cc2c[nH]cn2)NC1=O [copper-64 labelled] | dynamic PET | CD rat, myocardial infarction model, remote myocardium | intravenous, 18.5 MBq, 5 to 60 min | – | half-life | 19.8 ± 6.3 min |
| N#[11C]c1ccc(-c2csc(NN=C3CCCC3)n2)cc1 | – | C57BL/6 mouse, male | intravenous, 3 MBq, 5 min | – | uptake in testis | 1.74 ± 0.15 %ID/g |
| C=Cc1c(C)c2cc3nc(c(CC(=O)[O-])c4[n-]c(cc5nc(cc1[n-]2)C(C)=C5CC)c(C)c4C(=O)[O-])C(CCC(=O)[O-])C3C.[Cu+2].[Na+].[Na+].[Na+] (stereo not drawn) | – | Wistar rat, female | oral, 500 mg/kg daily, 28 days | – | serum albumin | 1.08 ± 0.08 g/dL |
| CSCC[C@H](NC(=O)CNC(=O)[C@H](CCCCN)NC(=O)[C@H](CC(C)C)NC(=O)[C@@H]1CCCN1C(=O)[C@H](CO)NC(=O)[C@H](Cc1c[nH]cn1)NC(=O)[C@H](Cc1c[nH]c2ccccc12)NC(=O)[C@H](CCCNC(=N)N)NC(=O)[C@H](CC(C)C)NC(=O)[C@H](CCCNC(=N)N)NC(=O)[C@H](Cc1c[nH]c2ccccc12)NC(=O)[C@H](CS)NC(=O)CCCCCNC(=O)CN1CCN(CC(=O)O)CCN(CC(=O)O)CCN(CC(=O)O)CC1)C(=O)O [copper-64 labelled] | ex vivo biodistribution | BALB/c nude mice, stomach | intravenous, dose not given, 18 h, Huh-7 tumour-bearing | – | tissue uptake | 2.34 %ID/g |
| C#Cc1c(F)ccc2cc(O)cc(-c3ncc4c(N5CC6CCC(C5)N6C(=O)OC(C)OC(=O)C(C)CC)nc(OC[C@@]56CCCN5C[C@H](F)C6)nc4c3F)c12 (stereo partly drawn) | chemical stability | simulated intestinal fluid | 1 µM, 30 min | – | compound remaining | 98.5% |
| CC(=O)NCCCC[C@@H]1NC(=O)[C@H](Cc2c[nH]c3c(C)cccc23)NC(=O)[C@H]([C@@H](C)O)NC(=O)[C@H](CC(N)=O)NC(=O)[C@@H](NC(C)=O)C(C)(C)SSC(C)(C)[C@@H](C(=O)N[C@@H](Cc2ccc(OCCN)cc2)C(=O)N[C@@H](Cc2ccc3ccccc3c2)C(=O)NC2(C(=O)N[C@@H](CCC(=O)O)C(=O)N[C@@H](CC(N)=O)C(=O)N[C@@H](Cc3cccnc3)C(=O)N(C)CC(N)=O)CCOCC2)NC1=O | – | cynomolgus monkey, ileum | intravenous, 1 mg/kg | relative to: plasma concentration | tissue concentration | 74% |
| Cc1cnc(-c2ncn3c(=O)n(C)nnc23)o1 | – | mice | intravenous, 125 mg/kg single dose, 7 days | – | body weight | 31.6 ± 0.3 g |
| C=CC(=O)Nc1cccc(Cn2ncc3cnc(Nc4cnn(CCOC)c4)nc32)c1 | – | Sprague-Dawley rat male, blood | oral, 180 mg/kg, day 28, 28-day subacute toxicity | – | haemoglobin | 14.3 ± 1.31 g/dL |
| CC[C@H](C)[C@H](NC(=O)[C@H](CCCCN)NC(=O)CNC(=O)[C@H](CC(C)C)NC(=O)[C@H](Cc1ccccc1)NC(=O)[C@H](CCCCN)NC(=O)[C@H](CO)NC(=O)[C@H](Cc1ccccc1)NC(=O)[C@H](Cc1c[nH]c2ccccc12)NC(=O)[C@H](CCC(N)=O)NC(=O)[C@@H](NC(=O)[C@H](Cc1ccccc1)NC(=O)CCCCCNC(=O)CN1CCN(CC(=O)O)CCN(CC(=O)O)CCN(CC(=O)O)CC1)C(C)C)C(=O)N[C@@H](CCC(=O)O)C(=O)N1CCC[C@H]1C(=O)N[C@H](CC(=O)O)C(=O)N[C@H](C(=O)N[C@@H](CO)C(=O)N[C@@H](CCC(N)=O)C(=O)N[C@H](C(=O)N[C@@H](CCC(N)=O)C(=O)N[C@@H](CC(=O)O)C(=O)N1CCC[C@H]1C(=O)N[C@@H](CC(N)=O)C(=O)N[C@@H](CC(=O)O)C(=O)N[C@@H](CCC(N)=O)C(=O)N[C@@H](Cc1ccc(O)cc1)C(=O)N[C@@H](CCC(=O)O)C(=O)N1CCC[C@H]1C(=O)N[C@@H](Cc1ccccc1)C(=O)O)C(C)C)C(C)C [copper-64 labelled] | – | C57BL/6 mice, male, MC-38 tumour-bearing, kidneys | 2 h, checkpoint inhibitor-treated | – | tissue uptake | 16.4 ± 2.5 %ID/g |
| CC1(C)C(=O)N(c2ccc(C#N)c(C(F)(F)F)c2)C(=S)N1c1ccc(C(N)=O)c(F)c1 | – | human, male, plasma | oral, 160 mg, single dose, fasting | – | MRT | 17.7 ± 2.6 days |
| O=C1NC2(CC2)COc2ncc(F)cc2[C@H]2COCCN2c2ccn3ncc1c3n2 | – | Sprague-Dawley rat, female, blood | oral, 5 mg/kg/day, 4 weeks, end of treatment, subacute toxicity | – | lymphocyte percentage | 59 ± 17.5% |
| NC1CCN(C(=O)Oc2ccc(C3CCCC4(C3)OOC3(O4)C4CC5CC(C4)CC3C5)cc2)CC1 (racemic) | – | male ICR mice, plasma | intravenous, 10 mg/kg | – | Tmax | 4.98 min |
